{"data": "Experimental data from different studies", "note": "Numbered parts are unrelated; each lists some results of a single study. Changes are numbered by the printed parent chain."}
{"data": "Series 1", "target": "ABI1, truncated, D143A, DHFR fusion (Arabidopsis thaliana)", "method": "DHFR PCA, deep sequencing", "matrix": "yeast", "setting": "methotrexate growth selection, single substitutions", "added": "(+)-ABA 17 µM", "reference": "wild-type fitted maximum", "reading": "higher = stronger binding", "starting sequence": "PYL1, truncated, DHFR fusion (Arabidopsis thaliana); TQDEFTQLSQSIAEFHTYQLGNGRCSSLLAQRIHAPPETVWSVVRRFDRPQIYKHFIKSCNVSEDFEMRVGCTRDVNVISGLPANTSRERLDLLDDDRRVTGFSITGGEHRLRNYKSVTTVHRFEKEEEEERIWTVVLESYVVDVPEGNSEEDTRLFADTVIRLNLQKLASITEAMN"}
{"Variant": "F15S", "relative binding score": "20.6%"}
{"Variant": "M68Y", "relative binding score": "60.9%"}
{"Variant": "T17N", "relative binding score": "60.8%"}
{"Variant": "V142N", "relative binding score": "47.3%"}
{"Variant": "S117M", "relative binding score": "24.3%"}
{"Variant": "M176Q", "relative binding score": "86.4%"}
{"Variant": "I133L", "relative binding score": "90.7%"}
{"data": "Series 2", "target": "CCNB1, cyclin fold, Cln2 fusion (human)", "method": "yeast growth competition, sequencing", "matrix": "yeast", "setting": "weak parent motif", "reference": "not given", "reading": "higher = stronger binding", "starting sequence": "SLBP docking peptide (human); ARYKRKLLINDFG"}
{"Variant": "AREKRKLLINDFG [Y3E]", "normalised enrichment score": 0.743}
{"Variant": "HRYKRKLLINDFG [A1H]", "normalised enrichment score": 1.02}
{"Variant": "ARYKRKLHINDFG [L8H]", "normalised enrichment score": 0.4}
{"Variant": "APYKRKLLINDFG [R2P]", "normalised enrichment score": 0.317}
{"Variant": "AGYKRKLLINDFG [R2G]", "normalised enrichment score": 0.38}
{"Variant": "ARYKRKLLENDFG [I9E]", "normalised enrichment score": 0.523}
{"Variant": "WRYKRKLLINDFG [A1W]", "normalised enrichment score": 1.24}
{"Variant": "ARYKRKLLIMDFG [N10M]", "normalised enrichment score": 0.36}
{"Variant": "ARYKRKLLLNDFG [I9L]", "normalised enrichment score": 0.846}
{"Variant": "ARYDRKLLINDFG [K4D]", "normalised enrichment score": 0.164}
{"Variant": "ARYKKKLFINDFG [R5K L8F]", "normalised enrichment score": 0.291}
{"Variant": "ARYVRKLLINDFG [K4V]", "normalised enrichment score": 0.788}
{"Variant": "ARYKRKLLISDFG [N10S]", "normalised enrichment score": 0.891}
{"data": "Series 3", "target": "Sal-like protein 4, full length isoform B (SALL4, Homo sapiens, UniProt Q9UJQ4-2, residues 1-616)", "method": "universal PBM", "form": "double-stranded DNA, one strand shown", "matrix": "in vitro", "tested at": "not given", "setting": "8-mer, flanks averaged, mean of replicates", "reading": "higher = stronger binding", "Target sequence (chain)": "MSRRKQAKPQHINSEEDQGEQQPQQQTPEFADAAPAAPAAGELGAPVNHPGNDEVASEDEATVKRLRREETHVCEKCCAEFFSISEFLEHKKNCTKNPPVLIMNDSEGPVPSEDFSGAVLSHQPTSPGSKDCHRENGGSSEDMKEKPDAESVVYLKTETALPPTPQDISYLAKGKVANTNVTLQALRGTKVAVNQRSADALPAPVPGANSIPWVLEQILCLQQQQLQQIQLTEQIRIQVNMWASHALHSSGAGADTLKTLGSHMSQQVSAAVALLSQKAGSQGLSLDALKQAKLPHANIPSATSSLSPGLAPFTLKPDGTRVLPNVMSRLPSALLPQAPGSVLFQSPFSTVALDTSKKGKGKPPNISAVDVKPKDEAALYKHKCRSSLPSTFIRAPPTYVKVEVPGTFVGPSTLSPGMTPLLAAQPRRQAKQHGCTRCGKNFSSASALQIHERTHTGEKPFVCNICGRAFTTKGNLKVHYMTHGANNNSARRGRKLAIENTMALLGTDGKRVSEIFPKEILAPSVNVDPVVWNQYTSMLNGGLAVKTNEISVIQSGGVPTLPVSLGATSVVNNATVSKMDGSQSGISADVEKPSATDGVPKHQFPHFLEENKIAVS"}
{"Strand": "AATAGTGG", "E-score": 0.219}
{"Strand": "ATTGAAGA", "E-score": 0.113}
{"Strand": "AACGGATG", "E-score": -0.134}
{"Strand": "CTTATCAA", "E-score": 0.266}
{"Strand": "GGATTCCA", "E-score": 0.0227}
{"Strand": "CCCCGACA", "E-score": -0.0334}
{"Strand": "CCACGGAG", "E-score": -0.181}
{"Strand": "GCAAGTGC", "E-score": -0.248}
{"Strand": "ACGTCTAG", "E-score": 0.131}
{"Strand": "AACCATCT", "E-score": -0.074}
{"Strand": "CAGCACGG", "E-score": -0.174}
{"Strand": "ACTACCCA", "E-score": 0.0356}
{"Strand": "GTTGCTCA", "E-score": -0.066}
{"Strand": "AGCTTACC", "E-score": -0.0961}
{"data": "Single results of other studies"}
{"Substance": "PhoQ, residues 284 288 289 292 302 303 TTCLQL", "target": "PhoP, residues 12 14 15 18 19 NIMAP (Escherichia coli, UniProt P23836)", "test": "Sort-seq, measured: YFP reporter", "test system": "E. coli", "setting": "PhoQ-PhoP variant library, added: 10 µM Mg2+", "how to read": "reference: high Mg2+ state, higher = stronger signaling", "measurement": "fold induction", "value": 0.489}
